Measurements of several laboratories.
Protocols differ between the studies behind these lines. Numbers after ± are the reported error.
CHRNA1/Acetylcholine receptor subunit epsilon/Acetylcholine receptor subunit delta with beta1 subunit: CHRNA1/Acetylcholine receptor subunit epsilon/Acetylcholine receptor subunit delta, with beta1 subunit (Homo sapiens, UniProt P02708+Q04844+Q07001)

The chains behind the UniProt entries cited, without tags or fusion partners. Residues count along the entry.
UniProt P02708, 21-457 limits assumed: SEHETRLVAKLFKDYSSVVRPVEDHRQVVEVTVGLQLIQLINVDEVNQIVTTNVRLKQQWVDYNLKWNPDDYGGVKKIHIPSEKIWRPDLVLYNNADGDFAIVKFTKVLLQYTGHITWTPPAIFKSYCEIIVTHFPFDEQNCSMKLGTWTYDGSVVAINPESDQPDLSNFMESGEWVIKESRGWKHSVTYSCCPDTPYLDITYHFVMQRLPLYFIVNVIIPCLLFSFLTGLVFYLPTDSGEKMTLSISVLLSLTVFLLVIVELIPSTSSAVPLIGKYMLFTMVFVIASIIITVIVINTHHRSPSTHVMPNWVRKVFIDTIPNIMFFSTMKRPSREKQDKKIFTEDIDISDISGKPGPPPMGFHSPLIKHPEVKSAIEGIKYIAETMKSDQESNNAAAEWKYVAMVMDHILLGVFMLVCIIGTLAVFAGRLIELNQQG
UniProt Q04844, 21-493 limits assumed: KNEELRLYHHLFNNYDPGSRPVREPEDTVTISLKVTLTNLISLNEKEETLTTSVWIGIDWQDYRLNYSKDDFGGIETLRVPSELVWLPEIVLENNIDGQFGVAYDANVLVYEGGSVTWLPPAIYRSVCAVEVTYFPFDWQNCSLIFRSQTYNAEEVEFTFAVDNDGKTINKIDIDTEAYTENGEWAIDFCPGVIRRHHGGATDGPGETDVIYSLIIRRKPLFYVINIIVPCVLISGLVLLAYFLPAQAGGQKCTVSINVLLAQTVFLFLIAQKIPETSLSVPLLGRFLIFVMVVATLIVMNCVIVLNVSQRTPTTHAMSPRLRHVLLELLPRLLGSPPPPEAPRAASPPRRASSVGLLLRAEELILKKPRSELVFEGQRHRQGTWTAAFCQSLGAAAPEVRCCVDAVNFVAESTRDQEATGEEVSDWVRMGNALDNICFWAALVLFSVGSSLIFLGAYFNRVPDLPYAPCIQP
UniProt Q07001, 22-517 limits assumed: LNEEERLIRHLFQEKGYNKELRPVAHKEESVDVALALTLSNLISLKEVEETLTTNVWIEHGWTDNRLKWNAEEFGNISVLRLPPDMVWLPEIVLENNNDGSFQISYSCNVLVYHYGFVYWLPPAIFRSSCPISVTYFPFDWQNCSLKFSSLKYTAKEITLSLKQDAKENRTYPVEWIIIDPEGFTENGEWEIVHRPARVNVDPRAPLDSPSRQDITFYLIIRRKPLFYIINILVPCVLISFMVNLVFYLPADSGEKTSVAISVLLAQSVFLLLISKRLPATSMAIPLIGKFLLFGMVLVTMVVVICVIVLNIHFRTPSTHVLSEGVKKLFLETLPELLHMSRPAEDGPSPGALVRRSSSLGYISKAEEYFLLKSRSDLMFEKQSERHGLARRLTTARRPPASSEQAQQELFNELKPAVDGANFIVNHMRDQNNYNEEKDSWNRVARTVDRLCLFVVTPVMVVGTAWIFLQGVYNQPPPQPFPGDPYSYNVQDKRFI
UniProt P09545, 611-741 limits assumed: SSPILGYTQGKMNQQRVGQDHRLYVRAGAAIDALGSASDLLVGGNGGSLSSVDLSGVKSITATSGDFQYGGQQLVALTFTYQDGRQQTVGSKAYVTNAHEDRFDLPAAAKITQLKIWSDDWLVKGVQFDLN
UniProt P0DOF5, whole entry V27A: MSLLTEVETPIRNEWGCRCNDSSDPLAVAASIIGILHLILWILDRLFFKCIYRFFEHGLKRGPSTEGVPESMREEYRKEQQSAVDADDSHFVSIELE
UniProt A0A4X1VEU5, 29-602 limits assumed: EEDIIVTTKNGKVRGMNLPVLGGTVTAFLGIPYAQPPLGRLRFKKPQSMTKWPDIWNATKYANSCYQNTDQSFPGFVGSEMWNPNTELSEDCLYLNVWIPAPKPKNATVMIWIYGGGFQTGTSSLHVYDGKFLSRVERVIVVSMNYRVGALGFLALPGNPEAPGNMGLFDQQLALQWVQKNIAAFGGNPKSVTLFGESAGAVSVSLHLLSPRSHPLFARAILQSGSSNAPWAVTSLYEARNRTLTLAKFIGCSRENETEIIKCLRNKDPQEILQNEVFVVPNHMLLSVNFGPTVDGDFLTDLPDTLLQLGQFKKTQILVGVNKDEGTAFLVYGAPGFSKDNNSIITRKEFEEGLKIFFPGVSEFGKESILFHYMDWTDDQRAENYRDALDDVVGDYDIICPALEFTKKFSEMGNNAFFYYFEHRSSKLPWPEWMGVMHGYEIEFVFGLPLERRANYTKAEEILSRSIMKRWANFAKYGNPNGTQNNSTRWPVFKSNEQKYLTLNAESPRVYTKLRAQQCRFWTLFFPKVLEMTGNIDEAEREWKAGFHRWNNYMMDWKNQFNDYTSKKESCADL
UniProt Q57WF1, 1-367: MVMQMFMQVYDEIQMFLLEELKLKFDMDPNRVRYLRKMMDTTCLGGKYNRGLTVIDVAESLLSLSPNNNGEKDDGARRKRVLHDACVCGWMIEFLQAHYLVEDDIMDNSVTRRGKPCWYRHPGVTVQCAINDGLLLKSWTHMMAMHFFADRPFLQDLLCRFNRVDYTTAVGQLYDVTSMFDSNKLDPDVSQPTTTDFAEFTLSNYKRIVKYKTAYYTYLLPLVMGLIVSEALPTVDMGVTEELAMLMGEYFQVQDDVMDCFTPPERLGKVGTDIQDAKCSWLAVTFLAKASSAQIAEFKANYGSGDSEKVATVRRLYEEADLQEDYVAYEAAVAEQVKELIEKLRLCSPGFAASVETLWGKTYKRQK
UniProt P05067, 672-713 limits assumed: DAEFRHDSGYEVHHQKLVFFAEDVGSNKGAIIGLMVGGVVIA
UniProt P08546, whole entry: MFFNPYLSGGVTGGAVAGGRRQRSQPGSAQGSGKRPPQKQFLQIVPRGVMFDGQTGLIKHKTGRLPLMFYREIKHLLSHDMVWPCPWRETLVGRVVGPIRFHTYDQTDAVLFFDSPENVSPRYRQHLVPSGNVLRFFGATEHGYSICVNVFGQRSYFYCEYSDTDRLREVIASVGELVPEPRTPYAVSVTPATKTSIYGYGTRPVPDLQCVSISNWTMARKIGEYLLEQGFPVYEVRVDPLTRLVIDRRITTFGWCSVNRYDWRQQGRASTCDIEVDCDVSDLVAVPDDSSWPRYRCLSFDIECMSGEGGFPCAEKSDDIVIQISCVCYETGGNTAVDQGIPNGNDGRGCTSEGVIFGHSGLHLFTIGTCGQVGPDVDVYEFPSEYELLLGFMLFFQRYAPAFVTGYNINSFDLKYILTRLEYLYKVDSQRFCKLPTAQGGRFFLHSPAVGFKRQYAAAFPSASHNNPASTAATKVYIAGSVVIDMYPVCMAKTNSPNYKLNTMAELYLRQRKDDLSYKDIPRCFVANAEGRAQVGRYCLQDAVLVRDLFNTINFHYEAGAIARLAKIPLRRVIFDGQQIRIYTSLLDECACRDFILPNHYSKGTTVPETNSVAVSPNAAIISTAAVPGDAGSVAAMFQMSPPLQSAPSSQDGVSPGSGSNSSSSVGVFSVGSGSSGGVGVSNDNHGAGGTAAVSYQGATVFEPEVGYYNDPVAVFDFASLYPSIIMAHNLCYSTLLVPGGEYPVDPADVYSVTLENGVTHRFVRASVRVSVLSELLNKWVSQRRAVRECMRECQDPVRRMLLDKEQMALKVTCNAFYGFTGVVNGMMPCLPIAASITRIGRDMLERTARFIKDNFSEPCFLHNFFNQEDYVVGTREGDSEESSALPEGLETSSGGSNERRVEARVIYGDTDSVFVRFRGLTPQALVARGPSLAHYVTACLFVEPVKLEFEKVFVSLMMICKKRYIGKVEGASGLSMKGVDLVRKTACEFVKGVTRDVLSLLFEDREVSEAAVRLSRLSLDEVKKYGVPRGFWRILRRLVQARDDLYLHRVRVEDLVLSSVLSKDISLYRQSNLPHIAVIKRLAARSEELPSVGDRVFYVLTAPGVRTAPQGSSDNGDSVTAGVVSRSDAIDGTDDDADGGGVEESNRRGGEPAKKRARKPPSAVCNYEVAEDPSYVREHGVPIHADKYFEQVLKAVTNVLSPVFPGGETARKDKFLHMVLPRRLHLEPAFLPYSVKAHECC
UniProt P37136, 32-614 limits assumed: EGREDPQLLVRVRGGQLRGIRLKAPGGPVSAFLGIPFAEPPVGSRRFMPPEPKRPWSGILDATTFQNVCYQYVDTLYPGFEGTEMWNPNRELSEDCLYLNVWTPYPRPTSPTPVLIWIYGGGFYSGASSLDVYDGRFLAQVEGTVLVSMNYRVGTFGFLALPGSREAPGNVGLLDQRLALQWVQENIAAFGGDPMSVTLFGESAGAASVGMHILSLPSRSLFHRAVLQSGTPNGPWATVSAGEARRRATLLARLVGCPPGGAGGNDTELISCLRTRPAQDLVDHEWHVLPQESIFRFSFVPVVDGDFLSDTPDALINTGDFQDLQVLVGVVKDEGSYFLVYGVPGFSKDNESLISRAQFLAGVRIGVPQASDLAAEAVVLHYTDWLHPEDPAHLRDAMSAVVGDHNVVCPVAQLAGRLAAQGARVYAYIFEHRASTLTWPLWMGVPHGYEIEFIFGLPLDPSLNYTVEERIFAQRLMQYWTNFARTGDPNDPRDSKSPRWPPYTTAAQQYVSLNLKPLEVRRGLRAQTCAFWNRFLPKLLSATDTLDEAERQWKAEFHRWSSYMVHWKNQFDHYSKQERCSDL
UniProt P05979, 25-600 limits assumed: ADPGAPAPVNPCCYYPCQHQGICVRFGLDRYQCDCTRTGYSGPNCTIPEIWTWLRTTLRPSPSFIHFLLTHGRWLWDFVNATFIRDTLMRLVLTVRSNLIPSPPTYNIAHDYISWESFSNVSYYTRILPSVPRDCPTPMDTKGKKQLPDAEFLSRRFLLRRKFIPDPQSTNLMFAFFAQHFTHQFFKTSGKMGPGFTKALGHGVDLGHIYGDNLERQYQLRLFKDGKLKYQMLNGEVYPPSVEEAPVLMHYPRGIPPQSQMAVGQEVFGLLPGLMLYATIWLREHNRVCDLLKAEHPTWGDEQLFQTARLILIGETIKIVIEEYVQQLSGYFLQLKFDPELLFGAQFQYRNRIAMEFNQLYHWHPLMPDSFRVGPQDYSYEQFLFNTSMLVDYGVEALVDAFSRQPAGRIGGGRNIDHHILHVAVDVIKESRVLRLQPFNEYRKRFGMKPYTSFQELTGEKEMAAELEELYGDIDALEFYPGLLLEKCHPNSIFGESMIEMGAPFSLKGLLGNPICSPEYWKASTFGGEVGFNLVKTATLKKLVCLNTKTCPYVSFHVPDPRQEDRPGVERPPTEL
UniProt P11230, 24-501 partner limits assumed: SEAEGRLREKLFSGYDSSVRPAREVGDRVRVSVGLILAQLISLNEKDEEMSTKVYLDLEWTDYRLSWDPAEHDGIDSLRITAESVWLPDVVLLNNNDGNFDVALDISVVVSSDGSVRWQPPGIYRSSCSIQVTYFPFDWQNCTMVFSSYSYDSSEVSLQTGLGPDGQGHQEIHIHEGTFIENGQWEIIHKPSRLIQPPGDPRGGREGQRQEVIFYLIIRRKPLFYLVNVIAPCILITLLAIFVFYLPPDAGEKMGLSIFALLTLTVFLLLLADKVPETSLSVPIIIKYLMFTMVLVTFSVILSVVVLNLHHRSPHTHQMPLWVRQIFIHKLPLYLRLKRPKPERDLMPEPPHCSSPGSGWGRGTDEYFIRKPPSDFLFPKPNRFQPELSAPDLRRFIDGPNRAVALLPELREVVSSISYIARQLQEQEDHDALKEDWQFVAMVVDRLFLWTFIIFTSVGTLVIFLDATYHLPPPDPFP

| Structure (SMILES) | target or system | test | test system | conditions | endpoint | value |
| --- | --- | --- | --- | --- | --- | --- |
| CC(=O)N[C@H]1[C@H](O[C@@H]([C@H](O)[C@H](CNc2ccccc2C(=O)O)NC(C)=O)[C@H](O)CO)O[C@H](CO)[C@@H](O[C@@H]2O[C@H](CO[C@H]3O[C@H](CO)[C@@H](O)[C@H](O)[C@@H]3O[C@@H]3O[C@H](CO)[C@@H](O)[C@H](O)[C@H]3NC(C)=O)[C@@H](O)[C@H](O[C@H]3O[C@H](CO)[C@@H](O)[C@H](O)[C@@H]3O[C@@H]3O[C@H](CO)[C@@H](O)[C@H](O)[C@H]3NC(C)=O)[C@@H]2O)[C@@H]1O | Hemolysin, beta-prism lectin domain (hlyA, Vibrio cholerae serotype O1, UniProt P09545) | – | – | – | Kd | 0.071 ± 0.065 µM |
| CCOc1ccc(C2C(C#N)=C(N)Oc3c2c(C)nn3-c2ccc(Cl)cc2)cc1 (centres unmarked) | Vero E6 | MTT | – | 100 µM | viability | 37.9% |
| CCOC(=O)c1c(-c2ccc(Cl)cc2Cl)n(-c2nc(-c3ccc(Cl)cc3)c3c(NC(=O)c4ccccc4)nnc-3[nH]2)[nH]c1=O | CCRF-CEM | NCI60 SRB | – | 5 log dose range | CC50 | > 100 µM |
| C1CCC2(CC1)CCNCC2 | Matrix protein 2 (Influenza A virus, UniProt P0DOF5, V27A) | viral replication | Udorn | – | IC50 | > 200 µM |
| CC(C)NP(=O)(NC(C)C)OP(=O)(NC(C)C)NC(C)C | Butyrylcholinesterase (Sus scrofa, UniProt A0A4X1VEU5) | enzyme activity, competitive inhibitor | – | pH 8.0 | Ki | 0.06 ± 0.02 µM |
| O=C(Nc1cccc(C2=NCCN2)c1)c1ccc(-c2ccc(C(=O)Nc3cccc(C4=NCCN4)c3)cc2)cc1 | farnesyl diphosphate synthase (Trypanosoma brucei, UniProt Q57WF1) | enzyme activity | – | – | IC50 | 27 ± 0.25 µM |
| CC[C@H](C)[C@@H]1NC(=O)[C@H](CCC(=O)O)NC(=O)[C@@H]2CCCN2C(=O)[C@H](Cc2c[nH]cn2)NC(=O)[C@H](CCCNC(=N)N)NC(=O)[C@H](C(C)C)NC(=O)[C@H](CC(N)=O)NC(=O)[C@@H]2CSSC[C@H](NC(=O)CN)C(=O)N[C@@H](CSSC[C@@H](C(N)=O)NC1=O)C(=O)N[C@@H](CO)C(=O)N[C@@H](Cc1c[nH]cn1)C(=O)N1CCC[C@H]1C(=O)N[C@@H](C(C)C)C(=O)N2 | CHRNA1/Acetylcholine receptor subunit epsilon/Acetylcholine receptor subunit delta with beta1 subunit | ion current, antagonist, two-electrode voltage clamp | Xenopus oocytes | together with: ACh 100 µM | IC50 | > 10 µM |
| C[C@@H](O)[C@@H]1NC(=O)[C@@H]2CSCSC[C@@H](C(=O)N[C@H](CC(=O)N[C@@H](CCCNC(=N)N)C(=O)O)Cc3ccc(O)cc3)NC(=O)[C@H](CCC(N)=O)NC(=O)[C@H](Cc3ccc(O)c(I)c3)NC(=O)[C@H](CCCNC(=N)N)NC(=O)[C@H](CSSC[C@H](NC(=O)CN)C(=O)N2)NC(=O)[C@H](CCCNC(=N)N)NC(=O)[C@@H]2CCCN2C(=O)[C@H](CC(=O)O)NC1=O | CHRNA1/Acetylcholine receptor subunit epsilon/Acetylcholine receptor subunit delta with beta1 subunit | ion current, antagonist, two-electrode voltage clamp | Xenopus oocytes | no inhibition at top concentration | IC50 | > 10 µM |
| CN(C)c1cccc(Oc2cnc(Nc3cccc(O)c3)nc2)c1 | Amyloid-beta precursor protein, Aβ42 with fibrinogen (APP, Homo sapiens, UniProt P05067) | AlphaLISA | – | – | IC50 | 29.1 µM |
| N#Cc1c(-c2ccc(Cl)cc2Cl)n(-c2nc(-c3ccc(Cl)cc3)c3c(NC(=O)c4ccccc4)nnc-3[nH]2)[nH]c1=O | SW-620 | SRB | – | – | CC50 | > 100 µM |
| Cc1cn([C@@H]2CC[C@H](OC(C(=O)O)P(=O)(O)O)C2)c(=O)[nH]c1=O (relative stereo) | DNA polymerase catalytic subunit (Human cytomegalovirus, UniProt P08546) | enzyme activity, inhibitor | – | together with: activated calf thymus DNA | IC50 | 38 ± 11 µM |
| COP(=O)(OC)Oc1ccc([N+](=O)[O-])cc1Cl | Ache (Rattus norvegicus, UniProt P37136) | enzyme activity, inhibitor, discontinuous Ellman | rat, postnatal day 1, rat skeletal muscle homogenate | 15 min, 37 °C | IC50 | 0.082 µM |
| COc1cc(C2C(C#N)=C(N)Oc3c2c(C)nn3-c2ccc(Cl)cc2)ccc1O (centres unmarked) | Vero E6 | – | – | 0.4 µM | viability | 90.7% |
| COc1ccc2c(c1)c(CC(=O)NCCCCNC(=O)c1ccc(C3=c4cc5c6c(c4Oc4c3cc3c7c4CCCN7CCC3)CCC[N+]=6CCC5)c(C(=O)NC3CC(C)(C)N([O])C(C)(C)C3)c1)c(C)n2C(=O)c1ccc(Cl)cc1 | PTGS1 (Ovis aries, UniProt P05979) | enzyme activity, inhibitor, TLC | – | together with: [14C]arachidonic acid | IC50 | > 4 µM |

Some of these lines once more:
| Structure (SMILES) | target or system | test | test system | conditions | endpoint | value |
| --- | --- | --- | --- | --- | --- | --- |
| CCOc1ccc(C2C(C#N)=C(N)Oc3c2c(C)nn3-c2ccc(Cl)cc2)cc1 (centres unmarked) | Vero E6 | MTT | – | 100 µM | viability | 37.9% |
